Measurements pooled from the literature.
Every numbered part comes from another study and shows a few of its results, in no order. Several values in a cell are separate wells, animals, samples, runs or records.

Block 1
SMILES: C[C@@H]1CN(c2ccc(-c3cc(C(=O)NCCOCCOCCOCCOCCOCCOCCNC(=O)/C=C/c4[nH]cc(C(=O)N[C@@H](CC(N)=O)c5ccc(F)c(Cl)c5)c4-c4ccc(Cl)cc4F)ccc3F)cc2NC(=O)c2ccc(F)cc2C(F)(F)F)C[C@H](C)N1C
Action: degrader
Time: 24 h
WDR5/DCAF1: WDR5/DCAF1 (Homo sapiens, UniProt P61964+Q9Y4B6)
WDR5: WD repeat-containing protein 5 (WDR5, Homo sapiens, UniProt P61964)
target	test	conditions	how to read	remaining protein level
WDR5/DCAF1	HiBiT luminescence	1510 nM	–	59.5% and 59.2% and 59%
WDR5	Jess capillary immunoassay, refers to: WDR5 over vinculin	25.7 nM	relative to: DMSO	103% and 97.9% and 90.6%
WDR5	Jess capillary immunoassay, refers to: WDR5 over vinculin	2 nM	relative to: DMSO	111% and 93.8% and 106%
WDR5/DCAF1	HiBiT luminescence	585 nM	–	60.4% and 53% and 61.1%
WDR5/DCAF1	HiBiT luminescence	5.15 nM	–	86.5% and 113% and 101%
WDR5/DCAF1	HiBiT luminescence	2 nM	–	97.4% and 102% and 94.3%
WDR5	Jess capillary immunoassay, refers to: WDR5 over vinculin	1821 nM	relative to: DMSO	60.1% and 73.7% and 66.1%
WDR5	Jess capillary immunoassay, refers to: WDR5 over vinculin	10000 nM	relative to: DMSO	80.7% and 61.3% and 69%

Block 2
Structure (SMILES): CN(C)c1ncnc(-c2ccc3nc(Nc4cc(CN5CCN(C(=O)CC(F)(F)F)CC5)ccn4)[nH]c3c2)c1Cl
Read-out: cell-free assay
Method: competition with immobilised ligand
Concentration: 1 µM
target	remaining binding [%]
CDK14 (Homo sapiens, UniProt O94921)	100
Macrophage colony-stimulating factor 1 receptor, autoinhibited (CSF1R, Homo sapiens, UniProt P07333)	50
ROCK2 (Homo sapiens, UniProt O75116)	91
WEE2 (Homo sapiens, UniProt P0C1S8)	100
KIT (Homo sapiens, UniProt P10721, D816H)	75
LTK (Homo sapiens, UniProt P29376)	88
CAMK2D (Homo sapiens, UniProt Q13557)	90
FER (Homo sapiens, UniProt P16591)	100
CILK1 (Homo sapiens, UniProt Q9UPZ9)	100

Block 3
Compound: CCN(c1nc(N)c(C(=O)N=C(N)N)nc1Cl)C(C)C
Read-out: β-arrestin recruitment
Action: agonist
Method: PRESTO-Tango
Concentration: 10 µM
Relative to: untreated
target	fold over basal
GRM4 (Homo sapiens, UniProt Q14833)	0.96 fold
GRPR (Homo sapiens, UniProt P30550)	0.95 fold
RXFP4 (Homo sapiens, UniProt Q8TDU9)	1.43
HRH3 (Homo sapiens, UniProt Q9Y5N1)	0.58 fold
CCR7 (Homo sapiens, UniProt P32248)	1.08
HTR2A (Homo sapiens, UniProt P28223)	0.34
FPR2 (Homo sapiens, UniProt P25090)	1.02 fold
Probable G-protein coupled receptor 162 (GPR162, Homo sapiens, UniProt Q16538)	1.14
ADGRG6 (Homo sapiens, UniProt Q86SQ4)	1.42
Probable G-protein coupled receptor 25 (GPR25, Homo sapiens, UniProt O00155)	0.97

Block 4
Target: Dual specificity tyrosine-phosphorylation-regulated kinase 4 (DYRK4, Homo sapiens, UniProt Q9NR20)
Read-out: enzyme activity
Action: inhibitor
Concentration: 0.5 µM
Relative to: control
Residues (Q9NR20 1-520): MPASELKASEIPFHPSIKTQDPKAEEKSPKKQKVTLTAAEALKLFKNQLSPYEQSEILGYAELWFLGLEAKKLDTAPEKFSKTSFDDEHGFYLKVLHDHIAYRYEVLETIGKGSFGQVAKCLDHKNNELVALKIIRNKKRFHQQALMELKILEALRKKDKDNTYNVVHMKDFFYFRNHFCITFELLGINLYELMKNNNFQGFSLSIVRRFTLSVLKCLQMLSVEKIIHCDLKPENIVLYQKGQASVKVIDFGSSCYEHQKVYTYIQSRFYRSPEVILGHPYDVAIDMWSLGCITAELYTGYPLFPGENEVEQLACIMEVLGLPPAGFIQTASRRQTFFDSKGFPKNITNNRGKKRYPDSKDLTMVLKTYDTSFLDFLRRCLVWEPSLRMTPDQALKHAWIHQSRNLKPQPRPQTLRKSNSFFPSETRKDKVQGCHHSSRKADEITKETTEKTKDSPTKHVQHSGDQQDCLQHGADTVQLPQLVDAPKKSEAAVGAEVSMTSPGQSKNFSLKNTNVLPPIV
SMILES	remaining activity
c1cc(-c2cnn3cc(-c4ccc(OCCN5CCCCC5)cc4)cnc23)ccn1	93%
O=C(c1cc2cc(O)ccc2[nH]1)c1cc2cc(O)ccc2[nH]1	99.7%
CC(C)n1cnc2c(Nc3cccc(Cl)c3)nc(NCCO)nc21	91.2%
Cc1cc(Nc2cc(N3CCN(C)CC3)nc(Sc3ccc(NC(=O)C4CC4)cc3)n2)[nH]n1	97.4%
N#C/C(=C(/N)SC1C=CC=CC1)c1cccc(C(O)c2ccncc2)c1 (stereo not shown)	97.2%
c1ccc(-c2n[nH]c3c2oc2ccccc23)cc1	99.7%
FC(F)(F)c1ccc(/C=C/c2nc(COc3ccc(CCCCn4ccnn4)cc3)co2)cc1	101%
CN1CCN(c2ccc3nc(-c4c(N)c5c(F)cccc5[nH]c4=O)[nH]c3c2)CC1	98.1%
O=C1Cc2c([nH]c3ccc(Br)cc23)-c2ccccc2N1	97.2%
CCCNC(=O)Nc1ccc(Oc2ncnc3cc(OC)c(OC)cc23)cc1Cl	106%
CCN(CC)CCCCN1c2ccccc2Oc2ccc(Cl)cc21	100%
O=C1c2ccccc2-c2nc3nnnn3nc21	88.5%
O=C(c1ccccc1)c1ccc(N2CCOCC2)cc1O	94.9%
COc1ccc2c(c1)c(C1=C(c3c[nH]c4ccccc34)C(=O)NC1=O)cn2CCCN(C)C	97.3%
C[C@@H](N)[C@H]1CC[C@H](C(=O)Nc2ccncc2)CC1	94.2%
COc1ccc(COc2ccc(Cc3cnc(N)nc3N)cc2OC)cc1	101%
CNc1cc2c(Nc3cccc(Br)c3)ncnc2cn1	87.5%
Oc1cccc(-c2nc(N3CCOCC3)c3oc4ncccc4c3n2)c1	96.6%
COc1cccc(-c2cc(=O)c3ccccc3o2)c1N	108%
O=C1Nc2ccc(Br)cc2/C1=C/c1cc2c([nH]1)CCCC2	102%
Nc1nc(Nc2ccc(S(N)(=O)=O)cc2)nn1C(=S)Nc1c(F)cccc1F	96.5%
O=C(O)/C=C/c1cc(Br)c(Br)c(Br)c1Br	96.4%
NC(=O)c1cccc(-c2cc(Nc3ccc(OC(F)(F)F)cc3)ncn2)c1	96.3%
COc1cc2c(N3CCN(C(=O)Nc4ccc(OC(C)C)cc4)CC3)ncnc2cc1OCCCN1CCCCC1	102%
O=c1c(-c2ccc(F)cc2)c(-c2ccncc2)[nH]n1-c1ccc(Cl)cc1	81.5%
